{"data": "Results of several laboratories", "TDP1": "Tyrosyl-DNA phosphodiesterase 1 (TDP1, Homo sapiens, UniProt Q9NUW8)", "sequence of UniProt Q9NUW8 (whole entry, looked up)": "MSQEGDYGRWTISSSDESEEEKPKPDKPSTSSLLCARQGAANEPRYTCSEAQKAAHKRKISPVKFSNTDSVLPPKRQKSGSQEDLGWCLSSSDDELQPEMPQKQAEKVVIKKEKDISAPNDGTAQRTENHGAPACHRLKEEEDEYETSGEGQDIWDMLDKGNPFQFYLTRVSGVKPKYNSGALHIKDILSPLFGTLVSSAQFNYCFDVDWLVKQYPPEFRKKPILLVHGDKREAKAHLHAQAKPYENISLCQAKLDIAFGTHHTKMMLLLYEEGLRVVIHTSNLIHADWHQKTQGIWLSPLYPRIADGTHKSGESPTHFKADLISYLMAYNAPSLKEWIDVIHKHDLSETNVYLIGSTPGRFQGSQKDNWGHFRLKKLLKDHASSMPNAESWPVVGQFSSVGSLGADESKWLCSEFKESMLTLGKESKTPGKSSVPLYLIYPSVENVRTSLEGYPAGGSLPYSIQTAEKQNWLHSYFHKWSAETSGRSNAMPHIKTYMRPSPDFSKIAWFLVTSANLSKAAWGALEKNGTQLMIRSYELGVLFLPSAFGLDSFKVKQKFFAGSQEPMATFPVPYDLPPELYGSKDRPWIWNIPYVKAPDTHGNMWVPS"}
{"SMILES": "O=C(Nc1cccc(C(=O)N2CCC(c3nc(-c4ccccc4)n[nH]3)CC2)c1)c1ccccc1", "test system": "DPBS", "conditions": "2 µM", "quantity": "stability half-life", "result": "> 2880 min"}
{"SMILES": "COc1cccc(F)c1C=NOCc1ccc2nc(-c3ccccc3)c(Nc3ccc(C(=O)O)cc3)n2c1 (mixture of isomers)", "target or system": "TDP1", "assay": "enzyme activity, inhibitor", "conditions": "100 µM, unpurified compound", "quantity": "inhibition", "result": "13%"}
{"SMILES": "O=C(NCc1ccc2c(c1)CN(C(=O)c1cc(-c3ccccc3)no1)C2)C1C=CC=CC=C1", "test system": "DPBS", "conditions": "2 µM", "quantity": "stability half-life", "result": "> 2880 min"}
{"SMILES": "CCCC[C@H](NC(=O)CNC(=O)CNC(=O)[C@H](CCCCNC(=O)[C@H](CC(=O)O)NC(=O)C(C)c1ccc(CC(C)C)cc1)NC(=O)CN1CCN(CC(=O)O)CCN(CC(=O)O)CCN(CC(=O)O)CC1)C(=O)N[C@H]1CC(=O)NCCCC[C@@H](C(N)=O)NC(=O)[C@H](Cc2c[nH]c3ccccc23)NC(=O)[C@H](CCCNC(=N)N)NC(=O)[C@@H](Cc2ccccc2)NC(=O)[C@H](Cc2c[nH]cn2)NC1=O (some centres unmarked) [lutetium-177 labelled]", "test system": "mouse serum", "conditions": "4 h, 37 °C", "quantity": "stability", "result": "stable"}
{"SMILES": "CCCCCCC(=O)[O][Pt]([NH2])([NH2])([Cl])([Cl])[O]C(=O)CCC(C)C1CCC2C3CCC4CC(O)CCC4(C)C3CCC12C (centres unmarked)", "assay": "HPLC", "test system": "DMEM cell culture medium", "conditions": "6 h, 37 °C", "quantity": "stability", "result": "stable"}
{"SMILES": "O=C([O-])CN1Cc2cccc(n2)CN(CC(=O)[O-])Cc2cccc(n2)C1.[Mn+2]", "assay": "voltammetry, Nernst equation", "conditions": "Mn(III) complex", "quantity": "stability constant log β", "result": 7.65}
{"SMILES": "CCCC[C@H](OC(C)=O)c1ccccc1C(=O)O", "test system": "whole blood, Sprague-Dawley rat and beagle dog", "quantity": "stability time", "result": "≤ 0.5 h"}
{"SMILES": "CC(C)(O)c1ncc([S@](N)(=O)=NC(=O)Nc2c3c(cc4c2CCC4)CCC3)s1", "test system": "human urine", "conditions": "room temperature", "quantity": "stability time", "result": "≥ 24 h"}
{"SMILES": "COC(=O)c1ccc(C=NOCc2ccc(-c3nc4cc(-c5ccccc5)ccn4c3Nc3ccc(C(=O)O)cc3)cc2)cc1", "target or system": "TDP1", "assay": "enzyme activity, inhibitor", "conditions": "100 µM, unpurified compound", "quantity": "inhibition", "result": "59.3%"}
{"SMILES": "CCCC[N+]1=c2cc3c4cc2[O][Mn-2]1(=[C]=O)(=[C]=O)(=[C]=O)[n+]1ccc(cc1)C(=O)Nc1ccccc1NC(=O)c1cc[n+](cc1)[Mn-2](=[C]=O)(=[C]=O)(=[C]=O)([O]3)[N+]=4CCCC", "test system": "DMSO/water 8:2", "conditions": "dark", "quantity": "stability time", "result": "≥ 12 h"}
{"SMILES": "COc1ccc(C([O-])=CC(=O)c2ccc(C(C)(C)C)cc2)cc1.[Cl-].[Ru+2].c1ccc(-c2cccc(-c3ccccn3)n2)nc1", "assay": "MLCT absorbance and HPLC", "test system": "water, PBS, Opti-MEM", "conditions": "37 °C", "quantity": "stability onset time", "result": "≤ 6 h"}
{"note": "Excerpt of the above:"}
{"SMILES": "CC(C)(O)c1ncc([S@](N)(=O)=NC(=O)Nc2c3c(cc4c2CCC4)CCC3)s1", "test system": "human urine", "conditions": "room temperature", "quantity": "stability time", "result": "≥ 24 h"}
